Published values gathered from unrelated publications.
Every numbered part comes from another study and shows a few of its results, in no order. “And” joins repeats or separate records; there may be more than shown.

Set 1 — technique: Phase 2a trial; host: idiopathic pulmonary fibrosis patients
SMILES: CC(C)n1cnc(-c2ccc(F)cc2)c1-c1ncc(C(=O)Nc2ccc(N3CCN(C)CC3)cc2)[nH]1
| measured | route | dose | setting | patients with adverse events [%] |
| --- | --- | --- | --- | --- |
| urinary tract infection | – | dose not given | grade 1 maximum intensity, all arms | 0 |
| bile acids increased | – | dose not given | grade 5 maximum intensity, all arms | 0 |
| oral herpes | oral | 60 mg once daily | grade 1 maximum intensity | 0 |
| chest discomfort | – | dose not given | grade 4 maximum intensity, all arms | 0 |
| chest discomfort | – | 30 mg once daily | grade 1 maximum intensity | 0 |
| blood bilirubin increased | – | 30 mg once daily | grade 3 maximum intensity | 0 |
| urinary tract infection | – | 30 mg once daily | grade 1 maximum intensity | 0 |
| respiratory tract infection | – | 30 mg once daily | grade 4 maximum intensity | 0 |
| bile acids increased | – | dose not given | grade 2 maximum intensity, all arms | 0 |
| vision blurred | – | 60 mg once daily | grade 5 maximum intensity | 0 |
| urinary tract infection | – | 30 mg once daily | grade 2 maximum intensity | 0 |
| back pain | – | 60 mg once daily | grade 1 maximum intensity | 0 |
| blood alkaline phosphatase increased | – | dose not given | grade 2 maximum intensity, all arms | 0 |
| neutrophil count increased | – | dose not given | grade 5 maximum intensity, all arms | 0 |
| urinary tract infection | – | dose not given | grade 3 maximum intensity, all arms | 0 |
| blood bilirubin increased | – | 30 mg once daily | grade 1 maximum intensity | 0 |
| neutrophil count increased | – | 30 mg once daily | grade 3 maximum intensity | 0 |
| reticulocyte count increased | – | dose not given | grade 2 maximum intensity, all arms | 0 |
| vision blurred | – | 30 mg once daily | grade 4 maximum intensity | 0 |
| back pain | – | 30 mg once daily | grade 1 maximum intensity | 0 |

Set 2 — technique: Incucyte 3D growth; tested at: 30 µM; direction: higher = more growth
SMILES: CC(C)(C(=O)O)[C@H](NC(=O)Cc1cccc(I)c1)c1ccc2oc(=O)[nH]c2c1
| cell line | time | spheroid area |
| --- | --- | --- |
| A375 | 450.52 h | 1.55e+08 a.u. and 1.44e+08 a.u. and 1.73e+08 a.u. and 1.68e+08 a.u. and 1.79e+08 a.u. and 1.6e+08 a.u. |
| KP-4 | 168 h | 2.3e+07 a.u. and 3.07e+07 a.u. and 2.52e+07 a.u. and 1.71e+07 a.u. and 2.69e+07 a.u. and 2.36e+07 a.u. |
| KP-4 | 84 h | 1.59e+07 a.u. and 1.46e+07 a.u. and 1.79e+07 a.u. and 1.63e+07 a.u. and 1.55e+07 a.u. and 1.43e+07 a.u. |
| A375 | 468.52 h | 1.5e+08 a.u. and 1.78e+08 a.u. and 1.45e+08 a.u. and 1.6e+08 a.u. and 1.65e+08 a.u. |
| IPC-298 | 60 h | 2.8e+07 a.u. and 2.43e+07 a.u. and 2.83e+07 a.u. and 2.96e+07 a.u. and 2.33e+07 a.u. and 3.08e+07 a.u. |
| MEL-JUSO | 486.52 h | 2.49e+07 a.u. and 4.97e+07 a.u. and 3.18e+07 a.u. and 1.86e+07 a.u. and 7.62e+07 a.u. and 2.3e+07 a.u. |
| KP-4 | 300 h | 1.03e+08 a.u. and 8.51e+07 a.u. and 7.39e+07 a.u. and 1.1e+08 a.u. and 5.55e+07 a.u. and 3.27e+07 a.u. |
| NCI-H358 | 114 h | 4.66e+06 a.u. and 5.55e+06 a.u. and 3.81e+06 a.u. and 5.59e+06 a.u. and 5.47e+06 a.u. |
| A375 | 216 h | 1.29e+08 a.u. and 1.27e+08 a.u. and 1.25e+08 a.u. and 1.51e+08 a.u. and 1.24e+08 a.u. and 1.1e+08 a.u. |
| A375 | 432.52 h | 1.51e+08 a.u. and 1.6e+08 a.u. and 1.84e+08 a.u. and 1.74e+08 a.u. and 1.81e+08 a.u. and 1.66e+08 a.u. |
| PC-9 | 12 h | 2.55e+08 a.u. and 2.41e+08 a.u. and 2.48e+08 a.u. and 2.4e+08 a.u. and 2.37e+08 a.u. |

Set 3 — read-out: enzyme activity; mode: inhibitor; tested at: 0.5 µM
Structure (SMILES): Cc1cc(Nc2cc(N3CCN(C)CC3)nc(Sc3ccc(NC(=O)C4CC4)cc3)n2)[nH]n1
| target | reference | remaining activity |
| --- | --- | --- |
| Serine/threonine-protein kinase MARK1 (MARK1, Homo sapiens, UniProt Q9P0L2) | control | 114% |
| Ribosomal protein S6 kinase beta-2 (RPS6KB2, Homo sapiens, UniProt Q9UBS0) | control | 94.4% |
| Tyrosine-protein kinase ABL2 (ABL2, Homo sapiens, UniProt P42684) | – | 5.75% |

Set 4 — read-out: cell-free assay; technique: competition with immobilised ligand; tested at: 0.1 µM
Compound: Cn1nc(C(=O)NCc2ccc(C(=O)O)cc2)cc1-c1ccc2[nH]ccc2c1
| target | remaining binding |
| --- | --- |
| Ribosomal protein S6 kinase alpha-2, C-terminal kinase domain (RPS6KA2, Homo sapiens, UniProt Q15349) | 98% |
| Epidermal growth factor receptor (EGFR, Homo sapiens, UniProt P00533, L858R) | 100% |
| Inhibitor of nuclear factor kappa-B kinase subunit beta (IKBKB, Homo sapiens, UniProt O14920) | 93% |
| Activated CDC42 kinase 1 (TNK2, Homo sapiens, UniProt Q07912) | 100% |
| Phosphatidylinositol 4,5-bisphosphate 3-kinase catalytic subunit alpha isoform (PIK3CA, Homo sapiens, UniProt P42336, E542K) | 88% |
| eIF-2-alpha kinase GCN2, C-terminal kinase domain (EIF2AK4, Homo sapiens, UniProt Q9P2K8, S808G) | 94% |
| Mitogen-activated protein kinase 12 (MAPK12, Homo sapiens, UniProt P53778) | 90% |
| Hepatocyte growth factor receptor (MET, Homo sapiens, UniProt P08581, Y1235D) | 100% |
| Tyrosine-protein kinase Mer (MERTK, Homo sapiens, UniProt Q12866) | 40% |
| Tyrosine-protein kinase ABL1, phosphorylated (ABL1, Homo sapiens, UniProt P00519, H396P) | 84% |
| Serine/threonine-protein kinase N1 (PKN1, Homo sapiens, UniProt Q16512) | 90% |
| Phosphatidylinositol 4,5-bisphosphate 3-kinase catalytic subunit alpha isoform (PIK3CA, Homo sapiens, UniProt P42336, E545K) | 87% |
| Serine/threonine-protein kinase 35 (STK35, Homo sapiens, UniProt Q8TDR2) | 94% |
| Tyrosine-protein kinase Blk (BLK, Homo sapiens, UniProt P51451) | 100% |
| Tyrosine-protein kinase receptor UFO (AXL, Homo sapiens, UniProt P30530) | 89% |
| Aurora kinase B (AURKB, Homo sapiens, UniProt Q96GD4) | 92% |
| Testis-specific serine/threonine-protein kinase 1 (TSSK1B, Homo sapiens, UniProt Q9BXA7) | 100% |
